Experimental data from different studies.
A part holds a random share of what one study measured.

Set 1
Target: RNA binding protein fox-1 homolog 2, RRM domain, GST-SBP tag (RBFOX2, Homo sapiens, UniProt O43251-10, residues 100-194)
Technique: RNA Bind-n-Seq
Molecule type: RNA
Medium: in vitro
Tested at: 365 nM
Setting: natural RNA segment, single round, ends assumed
Reference: no-protein control
Reading: higher = stronger binding
Construct (chain): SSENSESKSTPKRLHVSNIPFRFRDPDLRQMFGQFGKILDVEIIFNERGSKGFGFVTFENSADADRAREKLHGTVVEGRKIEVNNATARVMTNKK
Oligonucleotide | RBNS enrichment (R)
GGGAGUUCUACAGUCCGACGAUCUUUACACUUAUGCUCUAAGUGAUCCUUUUAAAAAUUUUCUGAACUAUUUGAGGAAAGUAUUAUUUGUCUUAAAGGGUAACAGCCUCAUGAAAUGACUUGAGGAUUCCAAUUGGAAUUCUCGGGUGCCAA | 0.736
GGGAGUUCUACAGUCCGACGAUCAAUGUGAUUUGUUAAGAUUCUUAAAUUUGGGCCUCUUAGAAUAAUUUUGAAUGAGAUCUACCGACUCACUUGUGAGAAUAUUUUUCACAGAUUAUCUUUGGGCCUUUUCAUGGAAUUCUCGGGUGCCAA | 0.425
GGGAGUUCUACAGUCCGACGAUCGCCAAGGGUGGGGUUUCACCUGCGAACAUCAGACUGACUUGCUGGCGUCAAGAGCAGUUGACUCACUGAUGAAGGCCCUGGUGAGGAGAAAGCACUCUGUUCUUCGCCUAUGGAAUUCUCGGGUGCCAA | 0.452
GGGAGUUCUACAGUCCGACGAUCUCCUCCUUCCCUUCAUAAGGACUUUUUUUGUCUUUCUUUAACGCCCAGGCUUCGUCUUAUUUCUACUGUUUUUGUCGCAACUUCCAUUGAUUUAUGUCCCUUCCCUCCCCUGGAAUUCUCGGGUGCCAA | 1.88
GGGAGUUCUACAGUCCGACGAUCGCUCAUCUCCGCUUUUUAGGGUCAGAGGAACACAAGCUCAUGUUCUGAGUGAAGGGCGUACACUGGCACCUGGUGUUGCCUAGAUCCCCCAUCUCCUCCUUCCAGCCAGGUGGAAUUCUCGGGUGCCAA | 0.291
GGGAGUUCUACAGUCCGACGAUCAUCCAGCAGACAUCAAAGCAAAACUAAAAGGUAGAUAUCUGGAAUGAAUGUAUAUGUUGUAAUUGAGGCAGAUAUUUGCCUUAAUUGGAAGGAUCUAACUGCUUUACAAAUGGAAUUCUCGGGUGCCAA | 0.64
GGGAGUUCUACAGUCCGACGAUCGAGACUCGAGGGGCAUGGUGACAGUGCAGAGCCAGGGAACCAGAGUCCAGUAACUCCUGCCAACCAUGGACCCUCGACCUCCUGUGCUGUCCCUGUAUCCAGAGCUGGGCUGGAAUUCUCGGGUGCCAA | 0.291
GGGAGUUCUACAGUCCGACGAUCUUCUGACUGUCCAGGAGCUAAUCUGACCGUUCUAUUGUGUGGAUGACCACAUAAGAAGGCAAUUUUAGUGUAUUAAUCAUAGAUUAUUAUAAACUAUAAACUUAAGGGCAUGGAAUUCUCGGGUGCCAA | 0.445

Set 2
Target: Ras GTPase-activating protein-binding protein 1, C-terminal RGG region (G3BP1, Homo sapiens, UniProt Q13283)
Chain of UniProt Q13283 (whole entry, looked up): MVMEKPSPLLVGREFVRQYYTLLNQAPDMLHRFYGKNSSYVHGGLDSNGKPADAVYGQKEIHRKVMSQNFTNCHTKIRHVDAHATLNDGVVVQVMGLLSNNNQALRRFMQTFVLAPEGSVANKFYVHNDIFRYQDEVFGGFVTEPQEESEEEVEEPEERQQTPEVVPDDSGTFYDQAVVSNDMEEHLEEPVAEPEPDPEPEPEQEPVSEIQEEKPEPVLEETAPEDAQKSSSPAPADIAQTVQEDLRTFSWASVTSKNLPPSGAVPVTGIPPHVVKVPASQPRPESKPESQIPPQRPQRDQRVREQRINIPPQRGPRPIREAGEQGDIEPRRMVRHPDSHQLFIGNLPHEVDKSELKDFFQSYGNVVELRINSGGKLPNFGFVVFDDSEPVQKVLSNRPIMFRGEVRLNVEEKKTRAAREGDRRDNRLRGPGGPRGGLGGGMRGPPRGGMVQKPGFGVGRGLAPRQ
Technique: RNA Bind-n-Seq
Molecule type: RNA
Medium: in vitro
Tested at: 1 µM
Setting: whole 134-nt RNA, ends assumed
With: 150 mM KCl
Reference: input library
Reading: higher = stronger binding
Oligonucleotide | log2 enrichment
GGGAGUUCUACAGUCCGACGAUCCUGUGCUACACAUCGUAUGUACCGAAUCGGGGCCCCCCGGGCCCCCCGGGGCCCCCCGGGGAAAGUAUUAUGUUACGCCGUUCGGAUCUGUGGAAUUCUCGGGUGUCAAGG | -2.15
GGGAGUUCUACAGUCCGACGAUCUGGCCCUGGUGGCAUGCGGGGACGAAGAGGUGGCCUCAUGGAUCGUGGUGGUCCCGGUGGAAUGUUCAGAGGUGGCCGUGGUGGAGACAGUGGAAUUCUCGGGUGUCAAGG | 2.49
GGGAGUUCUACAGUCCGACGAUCUGGGCGGCUGCGAGAUGAGAACGGACGACCCUACUCGCCCAGUCAGUAUGCGCUCCAGUACGCCGGGGACGGCAGUGUCCUCCUCAUCCCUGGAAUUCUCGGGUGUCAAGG | -0.231
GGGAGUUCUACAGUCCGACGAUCCACAGACAACACGCACCCACACAGACACAGAGGGAAGGGGUUGGGAUGGGGACAGGGUGCACAGCAGGGCGGGCUAGGACCCCAGCCCCUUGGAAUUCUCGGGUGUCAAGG | -1.53
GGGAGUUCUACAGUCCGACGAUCUGGCCCUGGUGGCAUGCGGGGAGGAAGAGGUGGCCUCAUGGAACGUGGUGGUCCCGGUGGAAUGUUCAGAGGUGGCCGUGGUGGAGACAGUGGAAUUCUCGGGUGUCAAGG | 2.27
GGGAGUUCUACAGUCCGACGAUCUCAAGUCCUGUGCUACACAUCGUAUGUACCGAAUCGGGGAAAGGAAAGGAAAGGGAAAGUAUUAUGUUACGCCGUUCGGAUCUGCACUUCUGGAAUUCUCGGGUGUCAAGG | -1.64
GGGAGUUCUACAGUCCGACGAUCCACAGACAACACGCACCCACACAGACACAGAGGGAAGGGGUUGGGAUGGGGACAGGGUGCGCAGCAGGGCGGGGUAGGACCCCAGCCCCUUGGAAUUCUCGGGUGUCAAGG | -0.486
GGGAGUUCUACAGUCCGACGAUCCUCAAGUCCUGUGCUACACAUCGUAUGUACCGAAUCGGGUUGGGUUGGGUUGGAAAGUAUUAUGUUACGCCGUUCGGAUCUGCACUUCCAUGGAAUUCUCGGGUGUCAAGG | 0.0305
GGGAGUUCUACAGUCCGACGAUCAAGUCCUGUGCUACACAUCGUAUGUACCGAAUCGGGGUGGGGAAAGGGGUUUGGGGAAAGUAUUAUGUUACGCCGUUCGGAUCUGCACUUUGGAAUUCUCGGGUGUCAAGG | 2.73

Set 3
Target: Cellular tumor antigen p53, full length (TP53, Homo sapiens, UniProt P04637, residues 1-393)
Technique: protein-binding microarray
Molecule type: hairpin DNA
Medium: in vitro
Tested at: not given
Setting: whole hairpin DNA, median over replicate spots
Reference: not given
Reading: higher = stronger binding
Oligonucleotide | median fluorescence
CGGACATGCCGGGGCATGTCTCCTGACATGCCCCGGCATGTCCGACACTC | 17700 a.u.
CGGACGTGCCCGGGCATGTCTCCTGACATGCCCGGGCACGTCCGACACTC (5mC at 39) | 18100 a.u.
CGGACATCGCCGGGCATGTCTCCTGACATGCCCGGCGATGTCCGACACTC (5mC at 8 36) | 12500 a.u.
CGGACACGCCCGGGCATGTCTCCTGACATGCCCGGGCGTGTCCGACACTC | 14700 a.u.
CCACACGTGGTTGCATGCCTTCCTAGGCATGCAACCACGTGTGGACACTC | 6070 a.u.
CCACACGTGGTGGCATGCCTTCCTAGGCATGCCACCACGTGTGGACACTC (5mC at 14) | 7120 a.u.
CGGACCGGCCCGGGCATGTCTCCTGACATGCCCGGGCCGGTCCGACACTC | 12800 a.u.
CGGACATGCCCGGGCATGTCTCCTGACATGCCCGGGCATGTCCGACACTC (5mC at 32) | 19100 a.u.
CCACACCTGGTGGCATGCCTTCCTAGGCATGCCACCAGGTGTGGACACTC | 7400 a.u.
CGGACATGCCCGGGCCTGTCTCCTGACAGGCCCGGGCATGTCCGACACTC | 12100 a.u.
CGGACATGCCAGGGCATGTCTCCTGACATGCCCTGGCATGTCCGACACTC | 15300 a.u.
CGGACATGCCGGGGCATGTCTCCTGACATGCCCCGGCATGTCCGACACTC (5mC at 10 34) | 13500 a.u.
CGGACATGACCGGGCATGTCTCCTGACATGCCCGGTCATGTCCGACACTC | 15400 a.u.
CCACACGTGGTCGCATGCCTTCCTAGGCATGCGACCACGTGTGGACACTC (5mC at 32) | 5930 a.u.
CCACACGTGCGGGCATGCCTTCCTAGGCATGCCCGCACGTGTGGACACTC (5mC at 10 34) | 10700 a.u.
CCACACGTCGTGGCATGCCTTCCTAGGCATGCCACGACGTGTGGACACTC (5mC at 9) | 7480 a.u.
CGGACATGCCCGGGCATGTCTCCTGACATGCCCGGGCATGTCCGACACTC (5mC at 33) | 20200 a.u.

Set 4
Target: Histone acetyltransferase KAT6A, winged helix 1, GST fusion (KAT6A, Homo sapiens, UniProt Q92794, residues 1-85)
Technique: protein binding microarray
Molecule type: double-stranded DNA, one strand shown
Medium: in vitro
Tested at: not given
Setting: 8-mer, flanks averaged, mean of 2 arrays, mostly near background
Reference: not given
Reading: higher = stronger binding
Residues (chain): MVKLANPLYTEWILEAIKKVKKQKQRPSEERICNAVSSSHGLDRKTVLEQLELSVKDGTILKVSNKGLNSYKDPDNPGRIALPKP
Oligonucleotide | E-score
CGACATCA | -0.0242
GACAATTA | 0.0111
CCGCGAAG | 0.315
CAAGATCA | -0.154
TCGCTTCA | -0.00377
GCAAAGAC | 0.00558
ATATGACC | 0.0369
GTGGCTAA | -0.0146
CTTGTCAC | -0.0346
CTGCCCAG | -0.256
CTTTAGCC | -0.0559
GAAACAAC | -0.0803
TAAATACA | -0.102
TAAACTTA | -0.197
CTGGTACA | -0.0849
ATCAGATC | -0.0447
GTTTGATA | -0.154
ACGAATCT | -0.187
CGAAAATA | 0.00996
GAGATACC | 0.0208
TCACGGAA | 0.249
CGAAGCAC | -0.25
CTCGTCCA | -0.165
GACGTGGA | -0.159
AGAAAGCA | -0.235

Repeated from above (set 3):
Oligonucleotide | median fluorescence
CGGACACGCCCGGGCATGTCTCCTGACATGCCCGGGCGTGTCCGACACTC | 14700 a.u.
CCACACGTGGTTGCATGCCTTCCTAGGCATGCAACCACGTGTGGACACTC | 6070 a.u.
CCACACGTGGTGGCATGCCTTCCTAGGCATGCCACCACGTGTGGACACTC (5mC at 14) | 7120 a.u.
CGGACCGGCCCGGGCATGTCTCCTGACATGCCCGGGCCGGTCCGACACTC | 12800 a.u.
CGGACATGCCCGGGCATGTCTCCTGACATGCCCGGGCATGTCCGACACTC (5mC at 32) | 19100 a.u.
CCACACCTGGTGGCATGCCTTCCTAGGCATGCCACCAGGTGTGGACACTC | 7400 a.u.
CGGACATGCCCGGGCCTGTCTCCTGACAGGCCCGGGCATGTCCGACACTC | 12100 a.u.
CGGACATGCCAGGGCATGTCTCCTGACATGCCCTGGCATGTCCGACACTC | 15300 a.u.
